Measured values from different studies.
Lines come from different studies, so protocols differ. Numbers after ± are the reported error.

Structure (SMILES) | assay | test system | conditions | tissue uptake [%ID/g]
CSCC[C@H](NC(=O)[C@H](CC(C)C)NC(=O)[C@H](Cc1c[nH]cn1)NC(=O)CNC(=O)[C@@H](NC(=O)[C@H](C)NC(=O)[C@H](Cc1c[nH]c2ccccc12)NC(=O)[C@H](CCC(N)=O)NC(=O)CNC(=O)[C@H](CO)NC(=O)CNC(=O)CCCCCCCNC(=O)CCC(=O)Nc1ccc(CNC23CNCCNCC(N)(CNCCNC2)CNCCNC3)cc1)C(C)C)C(N)=O [copper-64 labelled] |  | female SCID mice, PC-3 xenograft, muscle | intravenous, 0.6 MBq, 24 h | 0.074 ± 0.008
CSCC[C@H](NC(=O)[C@H](CC(=O)O)NC(=O)[C@H](CO)NC(=O)[C@H](Cc1c[nH]cn1)NC(=O)[C@H](Cc1c[nH]c2ccccc12)NC(=O)CN1CCN(CC(=O)O)CCN(CC(=O)O)CCN(CC(=O)O)CC1)C(=O)N[C@@H](CCC(=O)O)C(=O)N[C@@H](Cc1c[nH]c2ccccc12)C(=O)N[C@@H](Cc1c[nH]c2ccccc12)C(=O)N[C@@H](Cc1ccc(O)cc1)C(=O)N[C@@H](CC(C)C)C(=O)N[C@@H](CC(C)C)C(=O)NCC(=O)O [copper-64 labelled] | gamma counting | nude mice bearing HT-29 tumours, HT-29 tumour | intravenous, 0.74 MBq (0.02 nmol), 4 h | 3.55
N=C(N)NCCC[C@@H]1NC(=O)[C@H](CCCCNC(=O)CCOCCOCCOCCOCCNC(=O)CC[C@H](NC(=O)CCOCCOCCOCCOCCNC(=O)c2ccc(NN)nc2)C(=O)NCCOCCOCCOCCOCCC(=O)NCCCC[C@@H]2NC(=O)[C@@H](Cc3ccccc3)NC(=O)[C@H](CC(=O)O)NC(=O)CNC(=O)[C@H](CCCNC(=N)N)NC2=O)NC(=O)[C@@H](Cc2ccccc2)NC(=O)[C@H](CC(=O)O)NC(=O)CNC1=O [technetium-99m labelled] |  | female athymic nude mice, U-87 MG glioma xenograft, liver | intravenous, 2.5 µCi, 60 min | 1.69 ± 0.46
N=C(N)NCCC[C@@H]1NC(=O)[C@H](CCCCNC(=O)CCOCCOCCOCCOCCNC(=O)CN2CCN(CC(=O)O)CCN(CC(=O)O)CCN(CC(=O)O)CC2)NC(=O)[C@@H](Cc2ccccc2)NC(=O)[C@H](CC(=O)O)NC(=O)CNC1=O [indium-111 labelled] |  | female athymic nude mice, blood | intravenous, 3 µCi, 1 h, U-87 MG glioma xenograft | 0.63 ± 0.03
CC(C)C[C@H](NC(=O)[C@H](Cc1ccc(O)cc1)NC(=O)[C@@H](CCCNC(=N)N)NC(=O)[C@@H](CO)NC(=O)[C@H](Cc1ccccc1)NC(=O)[C@H](CC1CCCCC1)NC(=O)[C@H](CC(=O)O)NC(=O)CCC(C(=O)O)N1CCCN2CCN(CCCN(CC(=O)O)CC2)CC1)C(=O)N[C@@H](Cc1c[nH]c2ccccc12)C(=O)N[C@@H](CO)C(=O)O (some centres unmarked) [copper-64 labelled] |  | female NMRI nude mice, muscle | 22 h p.i. | 0.1 ± 0.1
N=C(N)NCCC[C@@H]1NC(=O)[C@H](CC(=O)NC23CNCCNCC(N)(CNCCNC2)CNCCNC3)NC(=O)[C@@H](Cc2ccccc2)NC(=O)[C@H](CC(=O)O)NC(=O)CNC1=O [copper-64 labelled] |  | male nude tumour-bearing mice, spleen | iv, 10 µCi, 24 h | 0.77 ± 0.17
N=C(N)NCCC[C@@H]1NC(=O)[C@H](CCCCNC(=O)CNC(=O)CNC(=O)CNC(=O)CC[C@H](NC(=O)CCOCCOCCOCCOCCNC(=O)CC[C@H](NC(=O)CN2CCN(CC(=O)O)CCN(CC(=O)O)CCN(CC(=O)O)CC2)C(=O)NCCOCCOCCOCCOCCC(=O)N[C@@H](CCC(=O)NCC(=O)NCC(=O)NCC(=O)NCCCC[C@@H]2NC(=O)[C@@H](Cc3ccccc3)NC(=O)[C@H](CC(=O)O)NC(=O)CNC(=O)[C@H](CCCNC(=N)N)NC2=O)C(=O)NCC(=O)NCC(=O)NCC(=O)NCCCC[C@@H]2NC(=O)[C@@H](Cc3ccccc3)NC(=O)[C@H](CC(=O)O)NC(=O)CNC(=O)[C@H](CCCNC(=N)N)NC2=O)C(=O)NCC(=O)NCC(=O)NCC(=O)NCCCC[C@@H]2NC(=O)[C@@H](Cc3ccccc3)NC(=O)[C@H](CC(=O)O)NC(=O)CNC(=O)[C@H](CCCNC(=N)N)NC2=O)NC(=O)[C@@H](Cc2ccccc2)NC(=O)[C@H](CC(=O)O)NC(=O)CNC1=O [indium-111 labelled] |  | athymic nude mice, female, U-87 MG glioma xenograft, spleen | intravenous, 3 µCi, 72 h | 0.54 ± 0.22
N=C(N)NCCC[C@@H]1NC(=O)[C@H](CCCCNC(=O)CCOCCOCCOCCOCCNC(=O)CC[C@H](NC(=O)[C@H](CCCCNC(=O)c2ccc(NN)nc2)NC(=O)c2ccc(NN)nc2)C(=O)NCCOCCOCCOCCOCCC(=O)NCCCC[C@@H]2NC(=O)[C@@H](Cc3ccccc3)NC(=O)[C@H](CC(=O)O)NC(=O)CNC(=O)[C@H](CCCNC(=N)N)NC2=O)NC(=O)[C@@H](Cc2ccccc2)NC(=O)[C@H](CC(=O)O)NC(=O)CNC1=O [technetium-99m labelled] |  | female athymic nude mice, muscle | intravenous, 0.1 MBq, 1 h, U-87 MG glioma xenograft | 1.1 ± 0.32
N=C(N)NCCC[C@@H]1NC(=O)[C@H](CCCCNC(=O)CCOCCOCCOCCOCCNC(=O)CC[C@H](NC(=O)CCOCCOCCOCCOCCNC(=O)CC[C@H](NC(=O)CN2CCN(CC(=O)O)CCN(CC(=O)O)CCN(CC(=O)O)CC2)C(=O)NCCOCCOCCOCCOCCC(=O)N[C@@H](CCC(=O)NCCOCCOCCOCCOCCC(=O)NCCCC[C@@H]2NC(=O)[C@@H](Cc3ccccc3)NC(=O)[C@H](CC(=O)O)NC(=O)CNC(=O)[C@H](CCCNC(=N)N)NC2=O)C(=O)NCCOCCOCCOCCOCCC(=O)NCCCC[C@@H]2NC(=O)[C@@H](Cc3ccccc3)NC(=O)[C@H](CC(=O)O)NC(=O)CNC(=O)[C@H](CCCNC(=N)N)NC2=O)C(=O)NCCOCCOCCOCCOCCC(=O)NCCCC[C@@H]2NC(=O)[C@@H](Cc3ccccc3)NC(=O)[C@H](CC(=O)O)NC(=O)CNC(=O)[C@H](CCCNC(=N)N)NC2=O)NC(=O)[C@@H](Cc2ccccc2)NC(=O)[C@H](CC(=O)O)NC(=O)CNC1=O [indium-111 labelled] |  | female athymic nude mice, lungs | intravenous, 3 µCi, 72 h, U-87 MG glioma xenograft | 0.66 ± 0.08
CSCC[C@H](NC(=O)[C@H](CC(C)C)NC(=O)[C@H](Cc1c[nH]cn1)NC(=O)CNC(=O)[C@@H](NC(=O)[C@H](C)NC(=O)[C@H](Cc1c[nH]c2ccccc12)NC(=O)[C@H](CCC(N)=O)NC(=O)[C@H](CC(N)=O)NC(=O)CNC(=O)[C@H](Cc1ccc(O)cc1)NC(=O)[C@H](CCCNC(=N)N)NC(=O)[C@H](CCC(N)=O)NC(=O)[C@@H]1CCCN1C(=O)CN1CCN(CC(=O)O)CCN(CC(=O)O)CCN(CC(=O)O)CC1)C(C)C)C(N)=O [indium-111 labelled] |  | male Swiss nu/nu mice, PC-3 tumour, kidney | intravenous, 10 pmol, 1 h | 7.9 ± 1.9
N=C(N)NCCC[C@@H]1NC(=O)[C@H](CCCCNC(=O)CCOCCOCCOCCOCCNC(=O)CC[C@H](NC(=O)CCOCCOCCOCCOCCNC(=O)[C@H](CCCCNC(=O)c2ccc(NN)nc2)NC(=O)c2ccc(NN)nc2)C(=O)NCCOCCOCCOCCOCCC(=O)NCCCC[C@@H]2NC(=O)[C@@H](Cc3ccccc3)NC(=O)[C@H](CC(=O)O)NC(=O)CNC(=O)[C@H](CCCNC(=N)N)NC2=O)NC(=O)[C@@H](Cc2ccccc2)NC(=O)[C@H](CC(=O)O)NC(=O)CNC1=O [technetium-99m labelled] |  | female athymic nude mice, blood | intravenous, 0.1 MBq, 1 h, U-87 MG glioma xenograft | 0.69 ± 0.16
N=C(N)NCCC[C@@H]1NC(=O)[C@H](CCCCNC(=O)CC[C@H](NC(=O)CCOCCOCCOCCOCCNC(=O)CN2CCN(CC(=O)O)CCN(CC(=O)O)CCN(CC(=O)O)CC2)C(=O)NCCCC[C@@H]2NC(=O)[C@@H](Cc3ccccc3)NC(=O)[C@H](CC(=O)O)NC(=O)CNC(=O)[C@H](CCCNC(=N)N)NC2=O)NC(=O)[C@@H](Cc2ccccc2)NC(=O)[C@H](CC(=O)O)NC(=O)CNC1=O [indium-111 labelled] |  | female athymic nude mice, bone | intravenous, 3 µCi, 1 h, U-87 MG glioma xenograft | 1.12 ± 0.14
CSCC[C@H](NC(=O)[C@H](CC(C)C)NC(=O)[C@H](Cc1c[nH]cn1)NC(=O)CNC(=O)[C@@H](NC(=O)[C@H](C)NC(=O)[C@H](Cc1c[nH]c2ccccc12)NC(=O)[C@H](CCC(N)=O)NC(=O)CCCCCCCNC(=O)CCC(=O)Nc1ccc(CNC23CNCCNCC(N)(CNCCNC2)CNCCNC3)cc1)C(C)C)C(N)=O [copper-64 labelled] |  | female SCID mice, PC-3 xenograft, muscle | intravenous, 0.6 MBq, 24 h | 0.095 ± 0.017
CCCC[C@H](NC(=O)[C@H](Cc1cccs1)NC(=O)[C@H](Cc1c[nH]cn1)NC(=O)CCNC(=O)[C@@H](NC(=O)[C@H](C)NC(=O)[C@H](Cc1c[nH]c2ccccc12)NC(=O)[C@H](CCC(N)=O)NC(=O)[C@H](Cc1cccs1)NC(=O)CN1CCC(NC(=O)CN(CCN(CCN(CC(=O)O)CC(=O)O)CC(=O)O)CC(=O)O)CC1)C(C)C)C(N)=O [indium-111 labelled] |  | male Swiss nu/nu mice, PC-3 xenograft, blood | intravenous, 10 pmol, 1 h post injection, 111In or 99mTc labelled | 0.2 ± 0.1

For quick reference, copied from above:
Structure (SMILES) | assay | test system | conditions | tissue uptake [%ID/g]
N=C(N)NCCC[C@@H]1NC(=O)[C@H](CCCCNC(=O)CCOCCOCCOCCOCCNC(=O)CN2CCN(CC(=O)O)CCN(CC(=O)O)CCN(CC(=O)O)CC2)NC(=O)[C@@H](Cc2ccccc2)NC(=O)[C@H](CC(=O)O)NC(=O)CNC1=O [indium-111 labelled] |  | female athymic nude mice, blood | intravenous, 3 µCi, 1 h, U-87 MG glioma xenograft | 0.63 ± 0.03
